Experimental data pooled from the literature.
Numbered parts are unrelated; each lists some results of a single study.

Sample 1 — technique: protein binding microarray; form: double-stranded DNA, one strand shown; matrix: in vitro; concentration: not given; baseline: not given; direction: higher = stronger binding; measurement: E-score
Target: Histone acetyltransferase KAT6A, both winged helices, GST fusion (KAT6A, Homo sapiens, UniProt Q92794, residues 1-181)
Setting: 8-mer, flanks averaged, mean of 2 arrays, mostly near background
Residues (chain): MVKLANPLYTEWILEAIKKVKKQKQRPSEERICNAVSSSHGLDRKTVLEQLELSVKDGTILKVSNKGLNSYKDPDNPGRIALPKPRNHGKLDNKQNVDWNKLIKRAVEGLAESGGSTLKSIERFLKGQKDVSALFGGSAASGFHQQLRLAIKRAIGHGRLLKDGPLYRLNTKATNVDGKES
CTAGACGC: 0.0414
GCATCCAA: -0.102
GCGGGAGA: 0.205
CATAGAAG: -0.0537
AGAAACAG: -0.0738
CCACCCGA: -0.0478
CACACACC: -0.0547
CAGCGGTC: 0.1
AACCAACG: -0.00535
AATTTTGG: -0.0709
GTAGGCCA: -0.194
AGGCAAGG: -0.244
AAGAGTTA: -0.203
ACTAACCC: -0.189
CCCAACAC: -0.115
ATGTCTTG: -0.0103
ATTCTCGA: 0.00545
CCACAAAA: -0.11
GCTAAGAC: 0.012
ATATGACC: -0.128
TTCAAGAA: -0.124
GACCTCTA: 0.0182
ATTCTACG: -0.00148
AATCATCT: -0.0864

Sample 2 — technique: competition protein-binding microarray; form: double-stranded DNA, one strand shown; matrix: in vitro; concentration: 2 µM; together with: Cbf1 competitor, 0.05 µM; direction: higher = stronger binding; measurement: fluorescence intensity; constant ends, left off below: … GTCTTGATTCGCTTGACGCTGCTG
Target: Phosphate system positive regulatory protein PHO4, full length, GST-tagged (PHO4, Saccharomyces cerevisiae, UniProt P07270, residues 1-312)
Setting: whole 60-bp probe, lowest competitor level
Residues (chain): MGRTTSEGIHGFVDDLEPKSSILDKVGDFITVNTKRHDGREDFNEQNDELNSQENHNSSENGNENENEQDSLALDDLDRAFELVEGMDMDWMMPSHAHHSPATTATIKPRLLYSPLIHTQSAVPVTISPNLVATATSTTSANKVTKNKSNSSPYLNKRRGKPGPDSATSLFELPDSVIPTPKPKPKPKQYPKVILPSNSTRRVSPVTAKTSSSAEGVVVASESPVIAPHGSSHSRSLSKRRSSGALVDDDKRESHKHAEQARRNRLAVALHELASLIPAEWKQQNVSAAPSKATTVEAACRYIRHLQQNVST
CCTGCCCGGTCTCCACACGTGGGTAGCCAGAGCCCG: 19000 a.u.
CCGGTATCTTTCCAAATCGTGCCGATGCTTGGAACC: 7170 a.u.
GTTTCAGCGAAGTCGCACGTGAAGGATAGCAGTGGC: 12700 a.u.
GATTGTGGAAAGAAGCATGTGGTTTTCAAAAATTGG: 9980 a.u.
AAGCTCGGCTAAGGCAACGTGCATCCCTCTAGAGAC: 11400 a.u.
CTGACGGGTTCTGGACACGTAGGCAATCCATATTGG: 5140 a.u.
CGTCCTAGTGATTGTCACGTAACTTCCATGAGGAAG: 4780 a.u.
CATACCCAACCTTGCCTAGTGGGTGAAGATATTTGT: 4650 a.u.
ACTACAGACAAAAAACCCGTGGCCGACCGAACCGAA: 10700 a.u.
TATGATCCCTCCCATCACATGGACACTTTTAAGCAA: 7360 a.u.
CGGGGTTAAGTTTGGTGGGTGGGTGGCTTGCAGCAG: 5040 a.u.
GATGCCGATAATTTTCACATGGATGAGTCGCAGTGT: 5620 a.u.
ACAACTCCCAGCAGCCACGAGGAGCCCTAGGGCTTG: 12000 a.u.
CTAACGAAGGTTTGACACGTGTTTTACAAGCCAAGT: 15900 a.u.
CATACCCAACCTTGTTAGGTGGGTGAAGATATTTGT: 3580 a.u.
CTTTGCCTTCTTCTCCACATGGAATTACTATTTTCA: 6060 a.u.
ATTTCCTCCCGTCTCTGCGTGCCAGACGGGATCAGC: 8180 a.u.
TTTTTCTCTTGCCGTCACATGATCGCAAAATGGCAA: 7420 a.u.
AGGGCATTGTCTACTCACGTGGTAATCAAATTCCAG: 14700 a.u.
ATTAAAAAGTGGATAATCGTGGGACTTATGGGTAAA: 7690 a.u.
GGAGTCAACGCTTTGCACGTGACGGCGGTACATAGT: 15400 a.u.
CTTTCCCGATCTTGTTGCGTGGGTGTAGCACATTTG: 6800 a.u.
ACCCGGGTGCTTCGTCACGTGCAAATCAAATATGAA: 16000 a.u.
GTCTTCTTGAATCCACACGTGAATACTACCTTTTTT: 13700 a.u.
TTCTACAAAGCATTTCACATGCTAATAAAAGCCCCG: 6830 a.u.

Sample 3 — technique: RNA Bind-n-Seq; form: RNA; matrix: in vitro; concentration: 365 nM; baseline: no-protein control; direction: higher = stronger binding; measurement: RBNS enrichment (R)
Target: RNA binding protein fox-1 homolog 2, RRM domain, GST-SBP tag (RBFOX2, Homo sapiens, UniProt O43251-10, residues 100-194)
Setting: natural RNA segment, single round, ends assumed
Constant ends, left off below: GGGAGUUCUACAGUCCGACGAUC … UGGAAUUCUCGGGUGCCAA
Target sequence (chain): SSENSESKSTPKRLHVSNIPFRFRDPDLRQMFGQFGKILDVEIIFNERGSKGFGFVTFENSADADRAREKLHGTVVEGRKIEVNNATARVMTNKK
UCUCUUCUCUCUUUGGUGUUCAUAGAGACAUUUCCAAUGGCAUUGCUUGAUUCAAAACCAAGGAAACCAGAACCAUUGAUCUUCUAUCUCUGUGAUUGCUAAGCAGUAGC: 0.284
AAGGGUGUGAAGAAGGAAUAGUUUUAUAAUCUCGGAAGAUGAUACCAAGAGCAGAGGCAACAAAUAGAGGCCUGGCCUCCAGGUGCCGGAUCCAGACACCUGACCUAGAA: 0.554
CUUCUUGACAUUUAUCUUUAUAAAAAUUGUGUAUUUUAUUCCAACUUGUUAAACUAAGAGAAAAUGCUUUUGUUGUGUGUUCUUUUAACACAAACAUGGAGAAAAGCUGU: 0.385
UCAUGCUCAGCAGCCAGGGCCACAUCAAACUGACAGACUUUGGACUUUGCAAGGAGUCCAUUCAUGAGGGUGCUAUCACUCACACCUUCUGUGGCACCAUUGAGUACAGG: 0.506
AAGCGCUUACACAUCCCCUCUGGUGCUUGGUUGAACAAGGGAAUCACGAGACAAUGAAAAUGCAGAGACUGAACUUGGGGGUCGUUCUGUGCCUUCCAGCAUCUUGUACA: 1.09
CCCUUGGGUUGCUUGCCAGACUCUUGAGUUGGCUCAUUUGUCCGGGCAGGGUUGGCUGGUAUGGUCAUCAGUAUGGGUCGUGACAGUCAAUGUCACUUCCUUCUCUAGGA: 0.298
AGCAUUCCUACGUUAUCCAUAUGUAUAUUUAUUUGUAUGUGUUUCACGUUAUAAAUGUUUUGUAGUGAACCCAGGGUGGGUGAGGGGGAAGCAUCUGUCUCACAUAGGCU: 0.44
UUUGGGACCAAAGUCCUCUCCUUAGUGCGCCUACUUCCUGUGGGCAUCAUGCCACUUGGAACUUAUUGGAACUGGCCCGGGAGACUCUGCAGUCUGCGCCGUUUGAAAAC: 0.648
GAGGUCAGGUCUUGCCCUAAGCUCAAAACAAGUGAGAGGUGUCCUGACCUAGCUCAUAGGGCAAAUGGUCCUAAUAGGAUGGGCAAUCCAGAUGCCUGAGCCCCUUCACU: 0.174
CACCCUGGCUGAAGUCAGCUUGACCUAGGUCUUGACCCUCAUCCAGCAAGGGACUCGACAGACCCAAGGGUCCCUGGAACGUAGGGAGGGGCUGGGGGUCAGUCCAGCCC: 0.291
CCUUAUAAAGAAUGCCAAUUAAGUUUUAUUACCUGUCAUCAAUUUAUCCUAGUAUCUCAGUGUUCAUUCUUCUUGCCUUCAUAUUUUUUUCAAAGAAACAGCUGUGCUAA: 0.632
CUCCAUUAAUACUAAUAAUUAUAUACUUUGCUGAGGAUCAAAACAGCCAAGAAAGGAAUUACUGCUAAAGCAUCUAAGAUUCUCCUGAACUGUAAAAUCAACAGGAAAUG: 0.303

Sample 4 — technique: protein-binding microarray; form: double-stranded DNA, one strand shown; matrix: in vitro; concentration: 2540 nM top; setting: 60-bp whole probe; together with: salmon DNA 0.4 mg/ml; baseline: random background probes; direction: higher = stronger binding; measurement: fitted relative affinity; constant ends, left off below: GCCTAGCAC … GTCTTGATTCGCTTGACGCTGCTG
Target: Interferon regulatory factor 3, full length, phosphomimetic (IRF3, Homo sapiens, UniProt Q14653, residues 1-427, S386D/S396D/S398D/S402D/T404D/S405D)
Residues (chain): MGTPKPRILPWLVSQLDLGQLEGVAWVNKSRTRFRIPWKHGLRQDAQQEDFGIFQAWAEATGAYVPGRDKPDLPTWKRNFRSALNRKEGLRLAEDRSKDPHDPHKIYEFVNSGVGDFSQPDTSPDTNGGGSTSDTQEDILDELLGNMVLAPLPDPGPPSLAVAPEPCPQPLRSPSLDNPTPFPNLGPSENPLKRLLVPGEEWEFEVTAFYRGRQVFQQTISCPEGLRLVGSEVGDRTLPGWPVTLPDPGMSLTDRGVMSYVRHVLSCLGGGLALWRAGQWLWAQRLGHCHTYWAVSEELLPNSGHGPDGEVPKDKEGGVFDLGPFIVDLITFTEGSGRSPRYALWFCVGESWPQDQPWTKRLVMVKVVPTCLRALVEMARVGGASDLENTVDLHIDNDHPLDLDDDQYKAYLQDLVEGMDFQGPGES
GACGATTTCAGTCGCGAGACGTGCTAG: 0.699 z-score
TTAGAACTGGGGTATCGATTTGTGCTA: -0.00202 z-score
TCAATTTCCACTTTGACACTGTGCTAG: 3.16 z-score
GACGGACTGGGGTATCGCGACGTGCTA: -0.877 z-score
TTAGGTTTCGGGACTGCGTTAGTGCTA: 4.28 z-score
TTAGATATCGTGACTGGATTAGTGCTA: -0.354 z-score
TTAGGTTTCGACAATCGGTTAGTGCTA: 1.79 z-score
TTAGATATTGGGACTGGATTAGTGCTA: -0.51 z-score
GACGGTTTCCTTTTCCTGACGTGCTAG: 10.5 z-score
TCAGTTTTCTCATTCGTACTGTGCTAG: 2.37 z-score
TTACGACTGCTTTTCCTTTAGTGCTAG: 0.794 z-score
TGGGATTTTTAGTTAGAAAAGTGCTAG: -0.242 z-score
TCATCTATCAAAAATACAACTGTGCTA: 0.627 z-score
GACGATTTCGGGTATCGTGACGTGCTA: 1.69 z-score
TTAGATAACGGGTTTCGATTAGTGCTA: 1.7 z-score
GACGGTTTCTTTATCCTGACGTGCTAG: 3.44 z-score
GACGGTATCGACACTGGGTACGTGCTA: 0.673 z-score
TTAGGTATCGCTCTCGGTTAGTGCTAG: 2.87 z-score
ATAGATTTCAGTCTCGATTAGTGCTAG: 2.55 z-score
TTAGGTTTCGGTTCCCGTTAGTGCTAG: 10 z-score
TCATATACCTGTATATCACTGTGCTAG: 0.569 z-score
AAGGCTTTGCTTCCTGCAGAGTGCTAG: -0.647 z-score
GACGGTCTCCTTCTACTGACGTGCTAG: 3.13 z-score

Some of these lines once more (sample 2):
CATACCCAACCTTGCCTAGTGGGTGAAGATATTTGT: 4650 a.u.
ACTACAGACAAAAAACCCGTGGCCGACCGAACCGAA: 10700 a.u.
TATGATCCCTCCCATCACATGGACACTTTTAAGCAA: 7360 a.u.
CGGGGTTAAGTTTGGTGGGTGGGTGGCTTGCAGCAG: 5040 a.u.
GATGCCGATAATTTTCACATGGATGAGTCGCAGTGT: 5620 a.u.
ACAACTCCCAGCAGCCACGAGGAGCCCTAGGGCTTG: 12000 a.u.
CTAACGAAGGTTTGACACGTGTTTTACAAGCCAAGT: 15900 a.u.
CATACCCAACCTTGTTAGGTGGGTGAAGATATTTGT: 3580 a.u.
CTTTGCCTTCTTCTCCACATGGAATTACTATTTTCA: 6060 a.u.
